Published values of several laboratories.
Each numbered part is a random draw from the data of one study; scales do not carry over between parts. Substitutions count along the parent as printed.
Sequence of UniProt P08172 (whole entry, looked up): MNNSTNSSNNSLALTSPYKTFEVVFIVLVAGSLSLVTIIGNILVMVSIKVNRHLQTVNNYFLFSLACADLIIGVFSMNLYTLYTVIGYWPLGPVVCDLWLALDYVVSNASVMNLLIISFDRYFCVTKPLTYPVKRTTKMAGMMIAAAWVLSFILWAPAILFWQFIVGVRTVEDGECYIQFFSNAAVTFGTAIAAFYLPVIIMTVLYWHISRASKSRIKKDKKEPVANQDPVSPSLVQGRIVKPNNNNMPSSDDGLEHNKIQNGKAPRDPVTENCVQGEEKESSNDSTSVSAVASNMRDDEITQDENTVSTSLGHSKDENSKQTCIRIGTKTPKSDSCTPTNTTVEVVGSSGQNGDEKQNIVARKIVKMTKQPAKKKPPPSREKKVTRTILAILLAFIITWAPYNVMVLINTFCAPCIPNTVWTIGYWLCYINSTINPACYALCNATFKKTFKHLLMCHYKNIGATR

Block 1
Target: Interferon regulatory factor 5, full length, phosphomimetic (IRF5, Homo sapiens, UniProt Q13568-2, residues 1-514, K96S/S451D/S453D/S456D/S462D)
Technique: protein-binding microarray
Molecule type: double-stranded DNA, one strand shown
Sample: in vitro
Tested at: 250 nM
Notes: 60-bp whole probe
Together with: salmon DNA 0.4 mg/ml
Reference: random background probes
Reading: higher = stronger binding
All sequences stand within: GCCTAGCAC … GTCTTGATTCGCTTGACGCTGCTG
Oligonucleotide | log fluorescence [z-score]
TCACAGCTCCCTTTCTCACTGTGCTAG | 0.135
GACGATTTCAGCCTCGAGACGTGCTAG | 0.649
TTAGAACTGAATATCGATTAGTGCTAG | 4.27
TTAGGCATCCTTCTCCTTTAGTGCTAG | -0.371
TTAGGACTGGGTTTCGGTGAGTGCTAG | 6.26
TTAGATTACAGTATCGATTAGTGCTAG | 6.3
TTAGATATCAGACTGGAATAGTGCTAG | 0.124
TCAAAAATCTTTGTTGGAACTGTGCTA | 0.336

Block 2
Target: Histone acetyltransferase KAT6A, winged helix 2, GST fusion (KAT6A, Homo sapiens, UniProt Q92794, residues 85-181)
Technique: protein binding microarray
Molecule type: double-stranded DNA, one strand shown
Sample: in vitro
Tested at: not given
Notes: 8-mer, flanks averaged, mean of 2 arrays, mostly near background
Reference: not given
Reading: higher = stronger binding
Construct (chain): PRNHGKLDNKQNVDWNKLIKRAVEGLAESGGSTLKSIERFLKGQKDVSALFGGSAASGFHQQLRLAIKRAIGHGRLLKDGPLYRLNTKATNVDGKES
Oligonucleotide | E-score
GTTACTAA | 0.0816
ACTGTACA | -0.214
GAGGAGGA | 0.0279
CAGGATGC | 0.082
ACCTTCAT | -0.0179
CTTACACC | -0.15
GGACAGCA | 0.0997
AGCCGATA | -0.0562

Block 3
Target: ABI1, truncated, D143A, DHFR fusion (Arabidopsis thaliana)
Technique: DHFR PCA, deep sequencing
Sample: yeast
Notes: methotrexate growth selection, single substitutions
Together with: (+)-ABA 710 µM
Reference: wild-type fitted maximum
Reading: higher = stronger binding
Parent: PYL1, truncated, DHFR fusion (Arabidopsis thaliana); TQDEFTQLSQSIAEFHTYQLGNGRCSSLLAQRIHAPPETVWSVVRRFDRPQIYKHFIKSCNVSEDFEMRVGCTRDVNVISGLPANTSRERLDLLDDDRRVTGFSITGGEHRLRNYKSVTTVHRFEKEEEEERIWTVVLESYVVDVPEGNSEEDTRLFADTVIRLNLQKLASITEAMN
Variant | relative binding score
R32H | 99.7%
V43T | 97.3%
L164W | 98.5%
A158I | 103%
T135W | -0.937%
T39I | 98.6%
G102V | 62.4%
R98D | 96.4%

Further values, each from its own experiment
SMILES | target | observed | technique | tested at | endpoint | result
CC(=O)Nc1nc(CN2CCC[C@H](Cc3cc(C)nc(C)c3)C2)cs1 | Muscarinic acetylcholine receptor M2 (CHRM2, Homo sapiens, UniProt P08172) | binding | radioligand binding | 10 µM | inhibition | 8.65%

Repeated from above (block 3):
Variant | relative binding score
L164W | 98.5%
A158I | 103%
T135W | -0.937%
